Published values gathered from unrelated publications.
A part holds a random share of what one study measured. Changes are numbered by the printed parent chain.
Chain of UniProt Q5S007 (whole entry, unmodified, looked up): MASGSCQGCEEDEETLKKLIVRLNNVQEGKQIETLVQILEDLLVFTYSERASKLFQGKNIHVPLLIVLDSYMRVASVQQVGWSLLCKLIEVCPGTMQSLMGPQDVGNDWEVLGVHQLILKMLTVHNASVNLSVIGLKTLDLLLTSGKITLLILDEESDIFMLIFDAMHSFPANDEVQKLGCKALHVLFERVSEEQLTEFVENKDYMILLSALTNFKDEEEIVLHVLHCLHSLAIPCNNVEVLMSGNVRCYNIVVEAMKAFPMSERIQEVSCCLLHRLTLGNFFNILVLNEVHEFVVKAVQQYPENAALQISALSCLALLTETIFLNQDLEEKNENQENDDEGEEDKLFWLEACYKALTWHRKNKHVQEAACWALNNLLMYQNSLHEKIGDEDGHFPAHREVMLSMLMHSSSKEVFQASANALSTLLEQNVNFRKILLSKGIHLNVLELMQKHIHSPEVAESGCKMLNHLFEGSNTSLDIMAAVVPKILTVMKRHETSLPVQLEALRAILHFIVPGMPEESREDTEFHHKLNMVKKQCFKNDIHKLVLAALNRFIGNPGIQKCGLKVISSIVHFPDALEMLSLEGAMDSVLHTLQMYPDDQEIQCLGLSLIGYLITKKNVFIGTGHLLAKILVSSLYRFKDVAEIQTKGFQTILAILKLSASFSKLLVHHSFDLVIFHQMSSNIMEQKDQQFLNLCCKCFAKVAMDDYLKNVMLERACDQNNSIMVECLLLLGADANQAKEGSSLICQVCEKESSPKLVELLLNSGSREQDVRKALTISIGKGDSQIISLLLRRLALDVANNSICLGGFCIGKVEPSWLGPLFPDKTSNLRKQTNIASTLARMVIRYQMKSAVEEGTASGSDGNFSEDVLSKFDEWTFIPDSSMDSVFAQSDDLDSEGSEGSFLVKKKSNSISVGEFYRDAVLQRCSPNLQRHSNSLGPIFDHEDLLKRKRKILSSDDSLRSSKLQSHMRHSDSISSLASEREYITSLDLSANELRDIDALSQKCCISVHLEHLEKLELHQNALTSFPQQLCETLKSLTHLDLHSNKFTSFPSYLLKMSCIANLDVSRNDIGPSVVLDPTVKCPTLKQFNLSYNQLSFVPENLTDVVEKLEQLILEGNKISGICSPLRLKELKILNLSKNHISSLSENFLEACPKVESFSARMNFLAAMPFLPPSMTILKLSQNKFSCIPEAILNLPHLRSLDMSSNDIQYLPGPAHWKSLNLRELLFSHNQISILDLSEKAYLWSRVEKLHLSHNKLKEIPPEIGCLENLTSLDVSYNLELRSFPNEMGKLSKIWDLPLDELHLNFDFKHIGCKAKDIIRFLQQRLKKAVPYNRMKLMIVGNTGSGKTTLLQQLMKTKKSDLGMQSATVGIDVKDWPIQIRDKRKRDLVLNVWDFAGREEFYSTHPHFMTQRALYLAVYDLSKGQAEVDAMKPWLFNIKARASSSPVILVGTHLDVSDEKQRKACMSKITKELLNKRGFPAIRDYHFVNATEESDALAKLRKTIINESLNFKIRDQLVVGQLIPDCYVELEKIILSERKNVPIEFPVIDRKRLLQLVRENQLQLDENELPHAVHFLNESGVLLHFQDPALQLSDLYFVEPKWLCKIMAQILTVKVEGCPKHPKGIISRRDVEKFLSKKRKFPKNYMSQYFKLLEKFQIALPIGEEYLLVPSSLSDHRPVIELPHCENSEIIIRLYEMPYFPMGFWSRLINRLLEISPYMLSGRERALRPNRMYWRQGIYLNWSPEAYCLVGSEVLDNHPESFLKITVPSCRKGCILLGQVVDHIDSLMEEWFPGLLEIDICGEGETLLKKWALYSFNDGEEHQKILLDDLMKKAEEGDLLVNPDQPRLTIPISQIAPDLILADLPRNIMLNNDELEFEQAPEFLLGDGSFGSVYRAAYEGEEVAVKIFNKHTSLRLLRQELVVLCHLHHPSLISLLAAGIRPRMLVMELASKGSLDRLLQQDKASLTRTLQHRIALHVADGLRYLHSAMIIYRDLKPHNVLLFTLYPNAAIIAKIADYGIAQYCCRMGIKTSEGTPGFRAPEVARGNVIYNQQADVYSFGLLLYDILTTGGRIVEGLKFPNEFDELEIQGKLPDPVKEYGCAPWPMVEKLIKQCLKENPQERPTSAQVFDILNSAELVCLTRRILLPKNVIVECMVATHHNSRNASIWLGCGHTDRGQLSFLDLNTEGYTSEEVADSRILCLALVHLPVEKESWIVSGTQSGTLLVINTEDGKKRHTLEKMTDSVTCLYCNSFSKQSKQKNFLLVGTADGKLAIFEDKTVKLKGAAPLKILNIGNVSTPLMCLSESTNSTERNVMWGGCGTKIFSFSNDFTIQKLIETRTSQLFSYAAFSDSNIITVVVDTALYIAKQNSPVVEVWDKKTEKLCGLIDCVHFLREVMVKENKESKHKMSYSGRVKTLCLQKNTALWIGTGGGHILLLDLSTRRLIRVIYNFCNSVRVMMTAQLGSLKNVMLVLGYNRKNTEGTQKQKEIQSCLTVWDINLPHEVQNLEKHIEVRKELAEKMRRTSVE
Chain of UniProt O14757 (whole entry, looked up): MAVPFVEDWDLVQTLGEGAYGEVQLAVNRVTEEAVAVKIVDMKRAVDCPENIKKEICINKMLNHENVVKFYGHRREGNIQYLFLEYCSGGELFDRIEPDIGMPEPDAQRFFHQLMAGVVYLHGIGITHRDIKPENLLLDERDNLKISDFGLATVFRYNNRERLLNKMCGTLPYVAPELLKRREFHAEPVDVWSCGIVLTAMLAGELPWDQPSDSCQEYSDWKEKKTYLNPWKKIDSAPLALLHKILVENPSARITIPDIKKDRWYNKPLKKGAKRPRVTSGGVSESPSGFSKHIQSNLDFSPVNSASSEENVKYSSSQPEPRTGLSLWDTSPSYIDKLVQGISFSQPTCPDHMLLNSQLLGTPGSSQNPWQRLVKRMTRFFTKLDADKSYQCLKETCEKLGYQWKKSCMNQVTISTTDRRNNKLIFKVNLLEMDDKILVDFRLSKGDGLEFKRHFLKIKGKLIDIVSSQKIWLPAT
Chain of UniProt P42336 (whole entry, unmodified, looked up): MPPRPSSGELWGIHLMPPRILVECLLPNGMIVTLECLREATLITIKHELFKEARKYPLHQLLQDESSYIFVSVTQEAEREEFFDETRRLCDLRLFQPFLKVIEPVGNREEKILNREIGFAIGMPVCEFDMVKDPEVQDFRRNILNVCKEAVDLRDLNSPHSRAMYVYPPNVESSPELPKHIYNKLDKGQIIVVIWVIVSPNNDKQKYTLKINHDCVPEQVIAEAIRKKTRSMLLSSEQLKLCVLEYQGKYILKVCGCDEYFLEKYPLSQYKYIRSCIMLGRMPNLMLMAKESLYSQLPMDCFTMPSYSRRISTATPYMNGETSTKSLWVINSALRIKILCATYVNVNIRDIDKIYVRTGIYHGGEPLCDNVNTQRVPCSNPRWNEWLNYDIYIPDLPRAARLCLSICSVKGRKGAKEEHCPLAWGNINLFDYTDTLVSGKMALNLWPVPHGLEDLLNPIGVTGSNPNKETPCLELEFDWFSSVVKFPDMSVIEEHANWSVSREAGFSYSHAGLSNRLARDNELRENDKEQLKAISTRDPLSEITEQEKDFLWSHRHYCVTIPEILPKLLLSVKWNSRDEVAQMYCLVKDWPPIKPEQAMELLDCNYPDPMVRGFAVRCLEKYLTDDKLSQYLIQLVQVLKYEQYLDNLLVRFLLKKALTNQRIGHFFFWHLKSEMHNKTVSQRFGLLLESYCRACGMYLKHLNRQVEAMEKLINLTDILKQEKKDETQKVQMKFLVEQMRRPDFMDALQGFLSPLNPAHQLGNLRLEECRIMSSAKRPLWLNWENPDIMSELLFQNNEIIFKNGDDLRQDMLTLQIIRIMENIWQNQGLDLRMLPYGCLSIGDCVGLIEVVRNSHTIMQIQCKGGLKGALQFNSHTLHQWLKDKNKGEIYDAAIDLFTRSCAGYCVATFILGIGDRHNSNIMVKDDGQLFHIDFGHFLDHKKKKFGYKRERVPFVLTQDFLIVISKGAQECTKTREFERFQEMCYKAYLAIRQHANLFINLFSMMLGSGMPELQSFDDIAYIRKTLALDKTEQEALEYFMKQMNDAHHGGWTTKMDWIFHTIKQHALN

Block 1 — method: competition protein-binding microarray; molecule type: double-stranded DNA, one strand shown; medium: in vitro; tested at: 2 µM; added: Pho4 competitor, 0.05 µM; reading: higher = stronger binding; measurement: fluorescence intensity; constant ends, left off below: … GTCTTGATTCGCTTGACGCTGCTG
Target: Centromere-binding protein 1, full length, His-tagged (CBF1, Saccharomyces cerevisiae, UniProt P17106, residues 1-351)
Chain of UniProt P17106 (whole entry, looked up): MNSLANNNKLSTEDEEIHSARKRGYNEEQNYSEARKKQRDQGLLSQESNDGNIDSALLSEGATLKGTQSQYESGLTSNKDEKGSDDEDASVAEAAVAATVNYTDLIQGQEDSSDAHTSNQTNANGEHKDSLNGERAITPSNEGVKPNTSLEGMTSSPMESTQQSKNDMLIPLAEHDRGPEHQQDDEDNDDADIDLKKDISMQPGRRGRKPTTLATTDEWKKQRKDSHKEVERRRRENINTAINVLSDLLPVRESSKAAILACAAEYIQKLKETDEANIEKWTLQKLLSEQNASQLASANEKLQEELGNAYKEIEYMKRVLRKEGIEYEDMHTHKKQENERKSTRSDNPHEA
Notes: whole 60-bp probe, lowest competitor level
CTAAGAAGATTGCTCAACGTGAAATACTTGCTGCTT: 82.9 a.u.
ATCACTACCAAGAATAACGTGACGGTGCATAGGAGC: 480 a.u.
CGGGGTTAAGTTTGCCAAGTGGGTGGCTTGCAGCAG: 62.2 a.u.
AAGGGACGGATTCAAGCCGTGTCTGTGAGCATCCAT: 65 a.u.
CTTCTGTAAATTTGGTTCGTGGGTGGACGCGCCCCG: 87.4 a.u.
CATACCCAACCTTTTCACGTGGAATAAGATATTTGT: 656 a.u.
TCACCCAAAACATTGATCATGCCTGAAGGTCCTAGG: 85.9 a.u.
TTAACCCACAAACGTCAGGTGTACAATCGCAAATCC: 221 a.u.

Block 2 — target: CEP164, C-terminal peptide (human); method: DHFR complementation, deep sequencing; medium: yeast; relative to: wild type; reading: higher = weaker binding; measurement: binding free energy change
Notes: single substitutions, model-inferred values
Starting sequence: PDZK1, PDZ domain 2 (human); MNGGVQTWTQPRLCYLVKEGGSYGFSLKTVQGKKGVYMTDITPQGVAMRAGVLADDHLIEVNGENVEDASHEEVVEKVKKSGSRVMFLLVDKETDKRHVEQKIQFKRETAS; partner HNRVKVYRF
I103S: -0.115 kcal/mol
Y37A: 0.91 kcal/mol
Q31S: 0.044 kcal/mol
M48V: 0.477 kcal/mol
T109F: -0.146 kcal/mol
V52L: 1.12 kcal/mol
V90S: -0.222 kcal/mol
S81K: 0.865 kcal/mol

Block 3 — method: competition with immobilised ligand; tested at: 1 µM; measurement: remaining binding
Structure (SMILES): Cc1noc([C@H]2C[C@@H](c3ccc(C(F)(F)F)cc3)CN(C(=O)N3CCS(=O)(=O)C3)C2)n1
PI4KB (Homo sapiens, UniProt Q9UBF8); cell-free assay: 93%
SRPK3 (Homo sapiens, UniProt Q9UPE1); cell-free assay: 100%
SYK (Homo sapiens, UniProt P43405); cell-free assay: 96%
TYRO3 (Homo sapiens, UniProt Q06418); cell-free assay: 100%
PIP5K1A (Homo sapiens, UniProt Q99755); cell-free assay: 88%
CDK5 (Homo sapiens, UniProt Q00535); cell-free assay: 100%
EGFR (Homo sapiens, UniProt P00533, G719C); cell-free assay: 100%
LRRK2 (Homo sapiens, UniProt Q5S007, G2019S); cell-free assay: 94%
FES (Homo sapiens, UniProt P07332); cell-free assay: 100%
LATS1 (Homo sapiens, UniProt O95835); cell-free assay: 100%
PRKACB (Homo sapiens, UniProt P22694); cell-free assay: 100%
PIK3CA (Homo sapiens, UniProt P42336, E545A); cell-free assay: 64%
TEC (Homo sapiens, UniProt P42680); binding: 100%
PNCK (Homo sapiens, UniProt Q6P2M8); cell-free assay: 100%
CHEK1 (Homo sapiens, UniProt O14757); cell-free assay: 100%
SGK1 (Homo sapiens, UniProt O00141); cell-free assay: 100%

Block 4 — read-out: enzyme activity; mode: inhibitor; tested at: 0.5 µM; relative to: control; measurement: remaining activity
Target: G protein-coupled receptor kinase 6 (GRK6, Homo sapiens, UniProt P43250)
Chain of UniProt P43250 (whole entry, looked up): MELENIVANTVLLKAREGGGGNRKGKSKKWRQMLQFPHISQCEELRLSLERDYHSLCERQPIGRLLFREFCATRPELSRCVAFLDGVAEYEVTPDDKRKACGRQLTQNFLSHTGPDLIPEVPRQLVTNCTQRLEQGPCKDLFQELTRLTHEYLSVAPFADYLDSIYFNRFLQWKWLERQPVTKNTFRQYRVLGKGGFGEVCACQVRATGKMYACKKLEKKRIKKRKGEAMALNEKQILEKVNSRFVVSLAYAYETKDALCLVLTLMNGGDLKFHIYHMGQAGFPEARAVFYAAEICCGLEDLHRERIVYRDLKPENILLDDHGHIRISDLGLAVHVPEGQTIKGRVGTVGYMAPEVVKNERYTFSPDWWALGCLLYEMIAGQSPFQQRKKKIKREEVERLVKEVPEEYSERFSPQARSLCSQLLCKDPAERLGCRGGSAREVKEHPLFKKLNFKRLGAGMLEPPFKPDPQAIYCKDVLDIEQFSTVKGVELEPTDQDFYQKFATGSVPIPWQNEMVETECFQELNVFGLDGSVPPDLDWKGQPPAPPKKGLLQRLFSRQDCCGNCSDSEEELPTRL
NC(=O)c1cccc(-c2cc(Nc3ccc(OC(F)(F)F)cc3)ncn2)c1: 101%
O=C1c2ccccc2-c2nc3nnnn3nc21: 58%
CC(C)(C)c1nc2c3cc[nH]c(=O)c3c3cc(F)ccc3c2[nH]1: 48.2%

Other studies, line by line — cell line: Huh-7; tested at: 10 µM; time: 24 h
COc1cc2nc(N(C)CCCNC(=O)C3CCCO3)nc(N)c2cc1OC (racemic)  viability: 98.1%
CC1(C)S[C@@H]2[C@H](NC(=O)[C@H](N)c3ccccc3)C(=O)N2[C@H]1C(=O)O  viability: 97.1%

Excerpt of the above (block 1):
ATCACTACCAAGAATAACGTGACGGTGCATAGGAGC: 480 a.u.
CGGGGTTAAGTTTGCCAAGTGGGTGGCTTGCAGCAG: 62.2 a.u.
AAGGGACGGATTCAAGCCGTGTCTGTGAGCATCCAT: 65 a.u.
CTTCTGTAAATTTGGTTCGTGGGTGGACGCGCCCCG: 87.4 a.u.
CATACCCAACCTTTTCACGTGGAATAAGATATTTGT: 656 a.u.
TCACCCAAAACATTGATCATGCCTGAAGGTCCTAGG: 85.9 a.u.
